Experimental data of several laboratories.
Every numbered part comes from another study and shows a few of its results, in no order.
UniProt Q9NY57, sequence (whole entry, looked up): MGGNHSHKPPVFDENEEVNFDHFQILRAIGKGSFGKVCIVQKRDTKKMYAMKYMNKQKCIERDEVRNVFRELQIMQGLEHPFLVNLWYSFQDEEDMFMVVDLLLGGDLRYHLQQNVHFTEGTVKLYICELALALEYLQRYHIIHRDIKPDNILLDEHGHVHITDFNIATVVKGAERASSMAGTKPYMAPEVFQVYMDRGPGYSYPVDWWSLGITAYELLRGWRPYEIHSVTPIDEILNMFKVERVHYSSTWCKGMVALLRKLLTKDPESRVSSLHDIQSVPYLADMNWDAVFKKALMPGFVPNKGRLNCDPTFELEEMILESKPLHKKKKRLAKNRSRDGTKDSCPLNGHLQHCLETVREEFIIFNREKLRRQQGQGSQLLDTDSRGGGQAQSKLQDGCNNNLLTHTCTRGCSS
UniProt Q16539, sequence (whole entry, looked up): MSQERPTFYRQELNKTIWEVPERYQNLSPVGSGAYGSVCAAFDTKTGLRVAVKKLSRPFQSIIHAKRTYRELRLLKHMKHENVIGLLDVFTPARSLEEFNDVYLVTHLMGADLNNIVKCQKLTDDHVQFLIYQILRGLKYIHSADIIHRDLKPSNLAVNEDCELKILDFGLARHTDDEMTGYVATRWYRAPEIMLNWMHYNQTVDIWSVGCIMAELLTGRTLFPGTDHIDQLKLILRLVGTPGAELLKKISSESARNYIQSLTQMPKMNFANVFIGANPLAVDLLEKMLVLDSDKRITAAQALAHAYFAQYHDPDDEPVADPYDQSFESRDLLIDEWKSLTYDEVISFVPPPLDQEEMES
UniProt O43683, sequence (whole entry, looked up): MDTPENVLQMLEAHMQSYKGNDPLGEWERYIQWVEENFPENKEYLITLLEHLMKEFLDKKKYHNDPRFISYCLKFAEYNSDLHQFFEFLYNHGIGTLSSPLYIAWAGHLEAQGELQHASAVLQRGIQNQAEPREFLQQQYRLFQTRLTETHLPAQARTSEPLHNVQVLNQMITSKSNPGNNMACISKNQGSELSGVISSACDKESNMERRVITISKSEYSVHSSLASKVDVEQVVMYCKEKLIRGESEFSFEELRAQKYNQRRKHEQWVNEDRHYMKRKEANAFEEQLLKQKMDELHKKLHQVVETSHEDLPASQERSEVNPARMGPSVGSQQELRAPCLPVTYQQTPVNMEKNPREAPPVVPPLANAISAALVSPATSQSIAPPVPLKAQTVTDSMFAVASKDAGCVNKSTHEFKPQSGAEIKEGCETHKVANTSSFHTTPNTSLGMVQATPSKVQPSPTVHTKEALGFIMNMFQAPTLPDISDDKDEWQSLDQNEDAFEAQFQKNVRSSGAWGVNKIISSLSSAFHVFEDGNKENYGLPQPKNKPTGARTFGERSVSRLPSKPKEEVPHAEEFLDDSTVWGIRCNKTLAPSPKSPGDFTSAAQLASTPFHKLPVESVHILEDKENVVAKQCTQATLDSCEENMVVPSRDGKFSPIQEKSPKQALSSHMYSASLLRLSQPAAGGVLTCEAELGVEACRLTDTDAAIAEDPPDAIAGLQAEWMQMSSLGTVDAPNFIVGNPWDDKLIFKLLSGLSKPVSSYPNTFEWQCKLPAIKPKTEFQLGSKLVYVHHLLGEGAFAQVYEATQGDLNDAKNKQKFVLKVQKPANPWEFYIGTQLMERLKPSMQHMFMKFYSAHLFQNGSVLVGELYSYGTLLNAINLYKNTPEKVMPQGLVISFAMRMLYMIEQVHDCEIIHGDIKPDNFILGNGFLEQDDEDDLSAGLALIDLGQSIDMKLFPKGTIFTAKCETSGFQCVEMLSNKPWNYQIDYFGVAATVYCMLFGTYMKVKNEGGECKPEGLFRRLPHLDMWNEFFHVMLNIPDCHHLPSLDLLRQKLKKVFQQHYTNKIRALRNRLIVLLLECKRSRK

Block 1
Cell line: A-375
Tested at: 100 µM
Time: 36 h
Measurement: viability
CN(C)CCOC(c1ccc(Cl)cc1)c1ccccn1 (stereo not drawn): 85.7%
O=c1ccc2ccc(O)c(O)c2o1: 94.1%
N[C@@H](Cc1ccc(O)c(O)c1)C(=O)O: 98.9%
Cc1nc(-c2ccc(OCC(C)C)c(C#N)c2)sc1C(=O)O: 99.2%
Clc1ccc(C(c2ccccc2Cl)C(Cl)Cl)cc1 (stereo not drawn): -0.937%
CO/N=C(\C(=O)N[C@@H]1C(=O)N2C(C(=O)OCOC(=O)C(C)(C)C)=C(/C=C\c3scnc3C)CS[C@H]12)c1csc(N)n1: 44.5%
CNCc1cc(-c2ccccc2F)n(S(=O)(=O)c2cccnc2)c1: 87%

Block 2
Target: Maternal embryonic leucine zipper kinase (MELK, Homo sapiens, UniProt Q14680)
UniProt Q14680, sequence (whole entry, looked up): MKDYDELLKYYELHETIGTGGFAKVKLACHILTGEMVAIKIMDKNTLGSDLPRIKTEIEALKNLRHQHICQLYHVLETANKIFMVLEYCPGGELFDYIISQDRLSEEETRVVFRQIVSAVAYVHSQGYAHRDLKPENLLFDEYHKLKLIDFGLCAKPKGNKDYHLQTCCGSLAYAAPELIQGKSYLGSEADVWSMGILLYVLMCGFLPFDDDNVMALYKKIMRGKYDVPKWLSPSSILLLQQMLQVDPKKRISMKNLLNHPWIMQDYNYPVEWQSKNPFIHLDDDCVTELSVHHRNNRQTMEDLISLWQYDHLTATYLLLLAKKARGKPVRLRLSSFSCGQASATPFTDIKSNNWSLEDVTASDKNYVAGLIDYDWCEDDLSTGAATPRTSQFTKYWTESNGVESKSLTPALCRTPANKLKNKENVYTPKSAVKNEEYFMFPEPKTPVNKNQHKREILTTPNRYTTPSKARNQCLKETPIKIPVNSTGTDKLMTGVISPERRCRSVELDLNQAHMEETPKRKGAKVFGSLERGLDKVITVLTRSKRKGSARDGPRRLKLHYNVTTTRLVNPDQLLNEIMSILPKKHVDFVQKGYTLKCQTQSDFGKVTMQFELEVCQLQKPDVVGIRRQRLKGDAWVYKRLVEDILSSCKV
Read-out: enzyme activity
Action: inhibitor
Tested at: 0.5 µM
Baseline: control
Measurement: remaining activity
COc1cc2ncnc(Nc3ccc(Oc4ccccc4)cc3)c2cc1OC: 101%
CO[C@H]1C[C@@H]2CC[C@@H](C)[C@@](O)(O2)C(=O)C(=O)N2CCCC[C@H]2C(=O)O[C@H]([C@H](C)C[C@@H]2CC[C@@H](O)[C@H](OC)C2)CC(=O)[C@H](C)/C=C(\C)[C@@H](O)[C@@H](OC)C(=O)[C@H](C)C[C@H](C)/C=C/C=C/C=C/1C: 97.8%
CN(C)c1ccc(C=C2C(=O)Nc3ccccc32)cc1: 89.3%
N#CC(C#N)=C(N)/C(C#N)=C/c1ccc(O)cc1: 101%
O=S(=O)(c1cccc2cnccc12)N1CCCNCC1: 78.6%
Nc1ncnc2n[nH]c(Nc3ccc(F)cc3)c12: 97.7%
Cc1ccc(Nc2nccc(N(C)c3ccc4c(C)n(C)nc4c3)n2)cc1S(N)(=O)=O: 87.5%
Cc1nc(-c2ccccc2)c(-c2ccncc2)o1: 105%
CC(C)[C@H](CO)Nc1nc(Nc2cc(N)cc(Cl)c2)c2ncn(C(C)C)c2n1: 51.5%
CCOC(=O)c1c(C)[nH]c(/C=C2\C(=O)Nc3ccccc32)c1C: 87.4%
Cn1sc(=O)n(Cc2ccccc2)c1=O: 99.3%
O=C(Nc1cccc(Nc2cc(Nc3cccc(C(F)(F)F)c3)ncn2)c1)C1CC1: 104%
Nc1ccc2ncnc(NCCc3ccc(Oc4ccccc4)cc3)c2c1: 96.8%

Block 3
Read-out: AlphaScreen signal
Technique: AlphaScreen counter screen
Medium: His6 peptide without bromodomain
Tested at: 50 µM
Notes: assay interference check
Measurement: inhibition
CCOc1ccc(NC(=S)Nc2ccc3nc[nH]c(=O)c3c2)cc1: 23.2%
CC(=O)Nc1ccc(Nc2nc(-c3sc(N)nc3C)cs2)cc1: 61.5%
Cc1ccc(Nc2nccc(N(C)c3ccc4c(C)n(C)nc4c3)n2)cc1S(N)(=O)=O: 32.1%
COc1ccc(Nc2nc(N)c(C(=O)c3ccc(OC)cc3)s2)cc1: 73.1%
O=c1c2ccccc2[nH]c(=S)n1CCN1CCC(=C(c2ccc(F)cc2)c2ccc(F)cc2)CC1: 39.6%
COc1ccc(NC(=S)Nc2ccc3nc[nH]c(=O)c3c2)cc1: 3.8%
Nc1n[nH]c2nc3ccccc3nc12: 7.65%

Block 4
Structure (SMILES): CO[C@@H]1[C@H](N(C)C(=O)c2ccccc2)C[C@H]2O[C@]1(C)n1c3ccccc3c3c4c(c5c6ccccc6n2c5c31)C(=O)NC4
Read-out: enzyme activity
Action: inhibitor
Tested at: 1 µM
Measurement: inhibition
STK32B (Homo sapiens, UniProt Q9NY57): 0%
BUB1 (Homo sapiens, UniProt O43683): 8%
MAPK14 (Homo sapiens, UniProt Q16539): 0%

A few entries again (block 4):
STK32B (Homo sapiens, UniProt Q9NY57): 0%
BUB1 (Homo sapiens, UniProt O43683): 8%
